Assay results from different studies.
Values joined by “and” are separate records of one study, mostly repeats; a detail may differ. Numbers after ± are the reported error.
Target: Broad substrate specificity ATP-binding cassette transporter ABCG2 (ABCG2, Homo sapiens, UniProt Q9UNQ0)
One construct used (Q9UNQ0 1-655): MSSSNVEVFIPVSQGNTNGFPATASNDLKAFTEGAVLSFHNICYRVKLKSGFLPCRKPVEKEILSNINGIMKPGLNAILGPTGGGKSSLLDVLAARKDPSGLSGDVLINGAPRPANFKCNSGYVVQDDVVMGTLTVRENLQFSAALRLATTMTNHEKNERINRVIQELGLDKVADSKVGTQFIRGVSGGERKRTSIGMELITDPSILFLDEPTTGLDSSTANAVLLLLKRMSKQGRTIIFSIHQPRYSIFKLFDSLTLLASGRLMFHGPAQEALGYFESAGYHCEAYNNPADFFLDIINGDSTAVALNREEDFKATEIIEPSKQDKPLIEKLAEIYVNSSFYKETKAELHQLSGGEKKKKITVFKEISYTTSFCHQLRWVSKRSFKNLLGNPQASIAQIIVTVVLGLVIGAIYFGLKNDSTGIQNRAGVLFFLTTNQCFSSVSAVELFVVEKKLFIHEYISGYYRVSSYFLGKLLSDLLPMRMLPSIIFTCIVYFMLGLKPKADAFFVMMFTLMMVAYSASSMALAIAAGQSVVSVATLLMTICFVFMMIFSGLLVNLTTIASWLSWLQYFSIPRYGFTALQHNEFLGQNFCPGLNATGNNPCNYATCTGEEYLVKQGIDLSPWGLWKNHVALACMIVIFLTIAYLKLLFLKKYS

CCOc1cc2ncc(C#N)c(Nc3ccc(OCc4ccccn4)c(Cl)c3)c2cc1NC(=O)/C=C/CN(C)C  Papp A-B (bidirectional transwell permeability; MDCKII cells transfected with ABCG2; 1 µM, 1 h, pH 7.4): 1.07 ± 0.21 ×10⁻⁶ cm/s
C[C@]12CCCN1CC1=NNC(=O)c3cc(F)cc4[nH]c2c1c34  uptake ratio (substrate; membrane vesicles; 5 µM; baseline: ATP over AMP): 2.08
C[C@H](O)C(=O)C1=Nc2c(nc(N)[nH]c2=O)NC1  Tmax (human; 20 mg/kg, compound alone): 4 h
CCc1cc(/C(C)=N/OCc2ccc(C3CCCCC3)c(C(F)(F)F)c2)ccc1CN1CC(C(=O)O)C1  maximal inhibition (transport, inhibitor; MDCK-II transfected with ABCG2; up to 24.7 µM, 40 min, with: PhIP 1 µM): -10.2%
CN1C[C@@H]2C[C@H]1CN2c1cc2c(cc1F)c(=O)c(C(=O)O)cn2C1CC1  transport (substrate; MDCK-II transduced with human ABCG2; 10 µM, 4 h, apical to basolateral): 13.3 ± 3.01%
C/C(O)=C(\C#N)C(=O)Nc1ccc(C(F)(F)F)cc1  efflux ratio (MDCK-II cells expressing ABCG2; 5 µM): 40.9
Cc1cc(=O)oc2cc(O[C@@H]3O[C@H](C(=O)O)[C@@H](O)[C@H](O)[C@H]3O)ccc12  Km (transport; membrane vesicles): 27 µM
Cc1cc(Nc2ncnc3ccc(NC4=NC(C)(C)CO4)cc23)ccc1Oc1ccn2ncnc2c1  efflux ratio (bidirectional transwell permeability; MDCKII cells transfected with ABCG2; 1 µM, 1 h, pH 7.4): 7.79 ± 1.41
CC(C)c1nc(N(C)S(C)(=O)=O)nc(-c2ccc(F)cc2)c1/C=C/[C@@H](O)C[C@@H](O)CC(=O)O  Papp (A to B) (substrate; human EpiIntestinal microtissues; 5 µM, 2 h, with: Ko143 5 µM): 3.5 ± 0.1 ×10⁻⁶ cm/s
COc1ccc2c3c([nH]c2c1)[C@H](CC(C)C)N1C(=O)[C@H](CC(=O)O)NC(=O)[C@@H]1C3  inhibition (PPIX efflux, inhibitor; A549; 1 µM, 2 h, with: 1 mM ALA): 18%
C/C(O)=C(\C#N)C(=O)Nc1ccc(C(F)(F)F)cc1  Papp B to A (Caco-2; 1 µM, 2 h, pH 7.4, with: 2 µM Ko143): 12.8 ×10⁻⁶ cm/s
CS(=O)(=O)CCNCc1ccc(-c2ccc3ncnc(Nc4ccc(OCc5cccc(F)c5)c(Cl)c4)c3c2)o1  Papp A-B (bidirectional transwell permeability; MDCKII cells transfected with ABCG2; 1 µM, 1 h, pH 7.4): 0.53 ± 0.39 ×10⁻⁶ cm/s
COc1ccc2c3c([nH]c2c1)[C@H](CC(C)C)N1C(=O)[C@H](CC(=O)NC(C)C)NC(=O)[C@@H]1C3  inhibition (inhibitor, measured: protoporphyrin IX; A549; 0.01 µM, 2 h, with: 1 mM ALA): 2.5% and 38.4% and -0.0726% and 14.8%

For quick reference, copied from above:
C/C(O)=C(\C#N)C(=O)Nc1ccc(C(F)(F)F)cc1  efflux ratio (MDCK-II cells expressing ABCG2; 5 µM): 40.9
Cc1cc(=O)oc2cc(O[C@@H]3O[C@H](C(=O)O)[C@@H](O)[C@H](O)[C@H]3O)ccc12  Km (transport; membrane vesicles): 27 µM
